Published values collected from several papers.
Compare with care: the assays were run in different laboratories. “And” joins repeats or separate records; there may be more than shown. ± gives the spread as reported.
GALR2: Galanin receptor type 2 (GALR2, Homo sapiens, UniProt O43603)
Sequence of UniProt O43603 (whole entry, looked up): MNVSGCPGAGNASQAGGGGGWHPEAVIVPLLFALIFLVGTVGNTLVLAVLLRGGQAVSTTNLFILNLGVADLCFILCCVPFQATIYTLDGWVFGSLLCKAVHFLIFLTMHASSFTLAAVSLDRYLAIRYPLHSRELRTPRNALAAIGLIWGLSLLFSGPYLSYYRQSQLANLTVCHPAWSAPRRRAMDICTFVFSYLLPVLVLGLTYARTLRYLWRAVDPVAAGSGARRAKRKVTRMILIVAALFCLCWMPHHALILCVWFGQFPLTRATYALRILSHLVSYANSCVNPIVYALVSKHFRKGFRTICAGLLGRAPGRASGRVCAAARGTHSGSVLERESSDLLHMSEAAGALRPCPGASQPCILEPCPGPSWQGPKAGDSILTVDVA
Breakpoint cluster region protein GAP domain: Breakpoint cluster region protein, GAP domain (Homo sapiens, UniProt P11274)
Sequence of UniProt P11274 (whole entry, looked up): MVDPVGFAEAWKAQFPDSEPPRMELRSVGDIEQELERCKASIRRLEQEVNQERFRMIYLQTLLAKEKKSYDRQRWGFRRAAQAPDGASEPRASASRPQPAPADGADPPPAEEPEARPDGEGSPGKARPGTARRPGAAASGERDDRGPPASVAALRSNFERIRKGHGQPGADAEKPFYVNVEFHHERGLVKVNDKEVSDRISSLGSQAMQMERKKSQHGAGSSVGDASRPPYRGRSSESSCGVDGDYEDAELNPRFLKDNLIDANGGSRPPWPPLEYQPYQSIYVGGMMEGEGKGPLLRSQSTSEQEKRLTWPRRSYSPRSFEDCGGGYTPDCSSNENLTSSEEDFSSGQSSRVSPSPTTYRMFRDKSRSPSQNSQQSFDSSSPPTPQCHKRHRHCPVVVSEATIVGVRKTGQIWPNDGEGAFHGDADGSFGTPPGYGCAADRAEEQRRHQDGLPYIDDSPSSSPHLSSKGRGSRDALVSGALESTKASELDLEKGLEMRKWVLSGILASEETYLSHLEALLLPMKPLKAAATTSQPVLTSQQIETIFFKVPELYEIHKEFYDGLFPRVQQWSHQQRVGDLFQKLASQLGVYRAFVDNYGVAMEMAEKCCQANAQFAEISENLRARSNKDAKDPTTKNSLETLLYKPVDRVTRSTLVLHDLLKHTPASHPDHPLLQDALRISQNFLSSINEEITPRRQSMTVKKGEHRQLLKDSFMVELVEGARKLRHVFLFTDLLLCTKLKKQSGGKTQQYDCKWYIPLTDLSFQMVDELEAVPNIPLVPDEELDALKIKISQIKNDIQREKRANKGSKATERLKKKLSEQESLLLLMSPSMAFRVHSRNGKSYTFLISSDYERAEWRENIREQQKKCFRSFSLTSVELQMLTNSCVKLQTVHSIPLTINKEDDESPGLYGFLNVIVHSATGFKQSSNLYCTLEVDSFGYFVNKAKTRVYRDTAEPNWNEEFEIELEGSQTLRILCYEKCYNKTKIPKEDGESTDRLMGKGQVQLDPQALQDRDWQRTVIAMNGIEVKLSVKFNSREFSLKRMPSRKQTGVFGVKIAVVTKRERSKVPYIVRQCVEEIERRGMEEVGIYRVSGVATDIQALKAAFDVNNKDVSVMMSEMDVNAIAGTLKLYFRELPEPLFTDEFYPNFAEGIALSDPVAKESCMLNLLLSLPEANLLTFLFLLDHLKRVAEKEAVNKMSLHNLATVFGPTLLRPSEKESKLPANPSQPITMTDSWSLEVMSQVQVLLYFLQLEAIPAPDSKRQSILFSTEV
PARP2: Poly [ADP-ribose] polymerase 2 (PARP2, Homo sapiens, UniProt Q9UGN5)
Sequence of UniProt Q9UGN5 (whole entry, looked up): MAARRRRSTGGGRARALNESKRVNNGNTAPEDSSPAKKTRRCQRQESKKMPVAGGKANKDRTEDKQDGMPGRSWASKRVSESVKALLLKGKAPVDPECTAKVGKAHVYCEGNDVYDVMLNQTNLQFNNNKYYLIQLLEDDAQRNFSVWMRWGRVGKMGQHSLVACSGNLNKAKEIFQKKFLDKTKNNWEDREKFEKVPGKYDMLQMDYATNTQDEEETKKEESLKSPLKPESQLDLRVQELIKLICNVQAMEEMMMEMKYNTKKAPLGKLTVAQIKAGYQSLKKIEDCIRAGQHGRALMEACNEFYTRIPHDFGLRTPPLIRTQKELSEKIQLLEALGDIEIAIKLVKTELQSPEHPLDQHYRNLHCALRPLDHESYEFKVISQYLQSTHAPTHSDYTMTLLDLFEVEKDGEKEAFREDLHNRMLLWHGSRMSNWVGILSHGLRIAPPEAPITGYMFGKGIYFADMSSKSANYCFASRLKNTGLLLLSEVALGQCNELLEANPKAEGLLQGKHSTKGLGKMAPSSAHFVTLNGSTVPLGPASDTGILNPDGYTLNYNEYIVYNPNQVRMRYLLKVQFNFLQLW
sn-1-specific diacylglycerol lipase ABHD11: sn-1-specific diacylglycerol lipase ABHD11 (Mus musculus, UniProt Q8K4F5)
Sequence of UniProt Q8K4F5 (whole entry, looked up): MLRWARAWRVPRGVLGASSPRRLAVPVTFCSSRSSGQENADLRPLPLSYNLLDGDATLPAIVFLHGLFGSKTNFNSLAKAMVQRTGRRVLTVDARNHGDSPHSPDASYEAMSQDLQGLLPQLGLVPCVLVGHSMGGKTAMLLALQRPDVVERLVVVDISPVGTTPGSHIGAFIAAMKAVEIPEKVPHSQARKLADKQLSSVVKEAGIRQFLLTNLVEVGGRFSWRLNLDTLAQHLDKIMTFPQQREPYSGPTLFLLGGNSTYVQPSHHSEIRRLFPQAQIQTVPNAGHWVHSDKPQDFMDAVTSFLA
HDAC3: Histone deacetylase 3 (HDAC3, Homo sapiens, UniProt O15379)
Sequence of UniProt O15379 (whole entry, looked up): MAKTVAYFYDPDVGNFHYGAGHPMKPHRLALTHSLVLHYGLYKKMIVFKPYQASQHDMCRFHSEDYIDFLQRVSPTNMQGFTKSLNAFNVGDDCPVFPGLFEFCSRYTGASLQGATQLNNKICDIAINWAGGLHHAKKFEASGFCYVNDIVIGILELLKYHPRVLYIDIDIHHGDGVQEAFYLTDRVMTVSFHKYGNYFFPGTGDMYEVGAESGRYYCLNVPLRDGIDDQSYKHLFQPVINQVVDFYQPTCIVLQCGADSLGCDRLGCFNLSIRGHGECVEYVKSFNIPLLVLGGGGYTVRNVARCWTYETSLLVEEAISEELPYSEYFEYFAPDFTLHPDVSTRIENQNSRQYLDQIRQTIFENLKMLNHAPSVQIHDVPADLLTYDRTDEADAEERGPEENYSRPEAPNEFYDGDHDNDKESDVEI
PLAT: Tissue-type plasminogen activator (PLAT, Homo sapiens, UniProt P00750)
Sequence of UniProt P00750 (whole entry, looked up): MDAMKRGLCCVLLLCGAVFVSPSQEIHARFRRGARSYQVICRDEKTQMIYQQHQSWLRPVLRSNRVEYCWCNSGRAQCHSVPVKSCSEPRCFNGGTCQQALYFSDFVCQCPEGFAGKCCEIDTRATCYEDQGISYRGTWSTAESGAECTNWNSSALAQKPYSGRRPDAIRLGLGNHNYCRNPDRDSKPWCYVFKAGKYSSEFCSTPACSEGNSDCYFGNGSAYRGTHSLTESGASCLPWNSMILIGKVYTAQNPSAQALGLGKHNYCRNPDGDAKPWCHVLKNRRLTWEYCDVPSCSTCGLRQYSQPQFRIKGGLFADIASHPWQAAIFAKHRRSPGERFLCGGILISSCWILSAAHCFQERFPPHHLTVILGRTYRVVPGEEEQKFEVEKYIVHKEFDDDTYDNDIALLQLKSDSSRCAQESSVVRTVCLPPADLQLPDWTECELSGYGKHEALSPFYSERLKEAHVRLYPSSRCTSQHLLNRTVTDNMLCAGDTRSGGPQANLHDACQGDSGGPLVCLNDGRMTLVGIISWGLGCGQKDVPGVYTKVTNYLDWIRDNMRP
DRD4: D(4) dopamine receptor (DRD4, Homo sapiens, UniProt P21917)
Sequence of UniProt Q93009 (whole entry, looked up): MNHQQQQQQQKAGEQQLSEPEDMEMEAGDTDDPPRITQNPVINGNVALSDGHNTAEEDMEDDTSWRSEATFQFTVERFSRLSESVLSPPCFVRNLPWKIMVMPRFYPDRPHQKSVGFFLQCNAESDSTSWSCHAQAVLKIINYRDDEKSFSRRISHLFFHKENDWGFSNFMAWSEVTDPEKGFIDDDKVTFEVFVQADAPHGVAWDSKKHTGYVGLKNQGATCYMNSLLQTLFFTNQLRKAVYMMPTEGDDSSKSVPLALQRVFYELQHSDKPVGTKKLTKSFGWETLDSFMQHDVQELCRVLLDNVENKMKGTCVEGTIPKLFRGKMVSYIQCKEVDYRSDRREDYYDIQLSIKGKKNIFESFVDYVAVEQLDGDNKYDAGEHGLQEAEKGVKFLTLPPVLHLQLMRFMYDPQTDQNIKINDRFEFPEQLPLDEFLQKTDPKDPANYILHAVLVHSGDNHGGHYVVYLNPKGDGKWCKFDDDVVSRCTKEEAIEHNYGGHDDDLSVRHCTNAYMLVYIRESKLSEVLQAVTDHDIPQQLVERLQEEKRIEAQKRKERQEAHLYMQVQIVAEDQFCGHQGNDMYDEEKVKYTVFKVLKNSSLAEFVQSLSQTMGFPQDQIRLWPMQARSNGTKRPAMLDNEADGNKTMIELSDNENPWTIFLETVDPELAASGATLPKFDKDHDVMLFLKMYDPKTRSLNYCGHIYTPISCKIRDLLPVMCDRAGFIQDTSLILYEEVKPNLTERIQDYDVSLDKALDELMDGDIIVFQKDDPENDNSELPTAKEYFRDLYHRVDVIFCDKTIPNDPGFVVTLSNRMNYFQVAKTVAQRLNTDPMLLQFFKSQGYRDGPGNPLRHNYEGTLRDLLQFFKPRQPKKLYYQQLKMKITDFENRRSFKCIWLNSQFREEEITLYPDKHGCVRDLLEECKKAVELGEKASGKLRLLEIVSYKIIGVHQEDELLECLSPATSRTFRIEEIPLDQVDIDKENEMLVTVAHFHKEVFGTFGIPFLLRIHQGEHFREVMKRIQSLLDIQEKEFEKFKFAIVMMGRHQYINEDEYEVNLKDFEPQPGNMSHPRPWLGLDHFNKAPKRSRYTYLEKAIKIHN
Sequence of UniProt Q8BLF1 (whole entry, looked up): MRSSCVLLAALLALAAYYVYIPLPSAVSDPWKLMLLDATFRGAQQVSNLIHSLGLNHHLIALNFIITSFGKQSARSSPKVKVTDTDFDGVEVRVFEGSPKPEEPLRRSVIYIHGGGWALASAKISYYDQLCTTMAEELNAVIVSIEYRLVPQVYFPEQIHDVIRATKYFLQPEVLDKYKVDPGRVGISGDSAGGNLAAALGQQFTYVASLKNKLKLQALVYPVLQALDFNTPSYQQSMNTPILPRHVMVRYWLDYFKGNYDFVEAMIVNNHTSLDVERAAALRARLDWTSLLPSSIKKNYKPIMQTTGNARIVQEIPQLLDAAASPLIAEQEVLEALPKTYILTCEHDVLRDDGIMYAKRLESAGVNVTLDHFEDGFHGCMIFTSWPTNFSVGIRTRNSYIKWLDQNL

CO[C@@H](C)c1c(NC(=O)Nc2cnc(-n3nccn3)c(C(F)(F)F)c2)cnc2sc(C)nc12
inhibition (GALR2; ligand displacement, radioligand; 10 µM): -2%

O=C(N1CCCC1)n1ccnn1
inhibition (Neutral cholesterol ester hydrolase 1 (Mus musculus, UniProt Q8BLF1); probe labeling, inhibitor, gel-based competitive ABPP; mouse T-cell proteome; 1 µM, 30 min, 37 °C): < 50%

CC(=O)O[C@@]1(C)CN(Cc2ccccc2)[C@H]2C[C@@H]1CC(=O)[C@@H]2C
inhibition (Delta-type opioid receptor (Oprd1, Rattus norvegicus, UniProt P33533); ligand displacement, radioligand; 1 µM): 16%

C=CC(=O)Nc1cccc(-c2cnc3[nH]cc(C(=O)NC(C)(C)C)c3n2)c1
inhibition (Sphingosine kinase 1 (SPHK1, Homo sapiens, UniProt Q9NYA1); enzyme activity, inhibitor; 0.1 µM): -4%

CC(=O)c1cnc(N)nc1N1CC[C@H]1c1nn2ccc(Cl)c2c(=O)n1-c1ccccc1
inhibition (GALR2; ligand displacement, radioligand; 10 µM): 10%

NC(=O)C[C@H]1CCc2sc3ncnc(O[C@H]4CC[C@H](N5CCOCC5)CC4)c3c21
inhibition (Cyclin-dependent kinase 1, with cyclin B (CDK1, Homo sapiens, UniProt P06493); enzyme activity, inhibitor; 10 µM): 17%

C[Si](C)(C)C[C@H](CN)CC(=O)O
inhibition (Sodium-dependent serotonin transporter (SLC6A4, Homo sapiens, UniProt P31645); ligand displacement, radioligand; 250 µM): 8%

CC(=O)c1ccc2c3c(cccc13)NC(C)=N2
inhibition (Breakpoint cluster region protein GAP domain; GAP activity; 10 µM, selectivity counter screen): 9.74%

Cc1cc(C(=O)NCCNC(=O)c2cccc(COc3ccccc3C(N)=O)c2)n[nH]1
inhibition (PARP2; enzyme activity, inhibitor; 0.5 µM): 100%

O=C(O)C1Nc2ccc(Cl)cc2C2C=CCC12 (stereo not shown)
inhibition (Breakpoint cluster region protein GAP domain; GAP activity; 10 µM, selectivity counter screen): 54.7%

O=C(N(c1ccccc1)c1ccccc1)n1ccnn1
inhibition (sn-1-specific diacylglycerol lipase ABHD11; serine hydrolase activity, inhibitor, competitive gel-based ABPP; mouse T-cell proteome; 1 µM, 30 min, 37 °C): > 95%

Cc1cc(Cl)cc(-c2ccnc3cc(CN4C(=O)C5C(C4=O)C5(C)C)sc23)c1C[C@@H]1CNCCO1 (stereo partly shown)
inhibition (Ubiquitin carboxyl-terminal hydrolase 7 (USP7, Homo sapiens, UniProt Q93009); enzyme activity, inhibitor; 0.5 µM): 115% and 122%

O=C(N1CCOCC1)n1ccnn1
inhibition (sn-1-specific diacylglycerol lipase ABHD11; serine hydrolase activity, inhibitor, competitive gel-based ABPP; mouse T-cell proteome; 1 µM, 30 min, 37 °C): > 95%

C=CC(=O)N1Cc2nc(-c3cc(-c4cc(Cl)cnc4Cl)c(F)cc3F)n(-c3ccncn3)c2C1
inhibition (Phosphatidylinositol 5-phosphate 4-kinase type-2 alpha (PIP4K2A, Homo sapiens, UniProt P48426); cell-free assay, inhibitor; 1 µM): -12.6%

Cc1c(COc2cc(OCc3cccc(C#N)c3)c(CNCCO)cc2Cl)cccc1-c1cccc(OCCCCCC(=O)NO)c1
inhibition (HDAC3; enzyme activity, inhibitor; 1 µM): 88.2%

N#Cc1c(Nc2ccccc2C(F)(F)F)s[nH]c1=O
inhibition (PARP2; enzyme activity, inhibitor; 10 µM): 25%

CCCCCCC#Cc1cncc(-c2nnc(SCc3ccc(Cl)cc3)n2C)c1
inhibition (mraY (Staphylococcus aureus, UniProt Q2FZ93); enzyme activity, inhibitor; 100 µM): 6%

CCCCCCCCCCCCCCCC(=O)N[C@@H](CCCCN)C(=O)N[C@@H](CCCCN)C(=O)N[C@@H](CO)C(=O)N[C@@H](CCCNC(=N)N)C(=O)N[C@@H](C)C(=O)N[C@@H](CC(C)C)C(=O)N[C@@H](Cc1ccccc1)C(N)=O
inhibition (Proteinase-activated receptor 1 (F2R, Homo sapiens, UniProt P25116); platelet aggregation, ex vivo LTA; human; 0.3 mg/kg, 1 h, with: SFLLRN 5 µM; relative to: baseline): 8%

CCCCCCN(O)C(=O)CCCCC[C@@H]1NC(=O)[C@H]([C@@H](C)CC)NC(=O)[C@H](Cc2ccccc2C(F)(F)F)NC(=O)CCSCc2cccc(n2)CSCCCNC1=O
inhibition (HDAC3; enzyme activity, inhibitor, fluorogenic; 30 µM): 35%

O=C1c2sc(-c3ccc(N4CCC(F)C4)nc3F)nc2CCN1c1cccnc1 (stereo not shown)
inhibition (AMPA receptor; radioligand binding; 1 µM, with: agonist radioligand): -23%

CC(C)NC(=O)[C@H](CCc1ccccc1)NC(=O)[C@H](CC(=O)NCC(C)(C)C)NC(=O)CCc1ccccc1
inhibition (PLAT; enzyme activity, inhibitor; 100 µM): 8%

COc1ccc(CN2CC(COc3cccc(Cl)n3)CC(F)(F)C2)cc1F (stereo not shown)
inhibition (DRD4; ligand displacement, radioligand; 10 µM): 33%

CN(C)C/C=C/C(=O)Nc1ccc2nc(NCCCCCN(C)C)nc(NCCCCCCN(C)C)c2c1
inhibition (DNA (cytosine-5)-methyltransferase 1 (DNMT1, Homo sapiens, UniProt P26358); enzyme activity, inhibitor, radiometric; 50 µM): 2%

O=[N+]([O-])c1ccc(Cn2cc(Cn3cc(CO)nn3)nn2)cc1
inhibition (1-phosphatidylinositol 4,5-bisphosphate phosphodiesterase delta-1, PH domain (Plcd1, Rattus norvegicus, UniProt P10688); PI(4,5)P2 binding to PH domain, SPR; 200 µM): 93 ± 5%

O=C(CCCc1ccc2c(c1)OCCO2)NCCNC(=O)Cn1c(=O)[nH]c(=O)c2ccccc21
inhibition (PARP2; enzyme activity, inhibitor; 5 nM): 0%

O=C(NCCCCc1ccccc1)n1c(=O)oc2cc(-c3ccc(F)cc3)ccc21
inhibition (Caspase-8 (CASP8, Homo sapiens, UniProt Q14790); enzyme activity, inhibitor; 10 µM): -0.9%

COc1ccc(S(=O)(=O)N2CCc3ccccc3C2)cc1N1CCN(C(=O)c2ccc(F)cc2C(F)(F)F)CC1
inhibition (Adenosine receptor A2b (ADORA2B, Homo sapiens, UniProt P29275); ligand displacement, radioligand; 1 µM): -14.7%

O=C(CC1CC2CCC1C2)NCCNC(=O)Cn1c(=O)[nH]c(=O)c2ccccc21 (stereo not shown)
inhibition (Poly [ADP-ribose] polymerase 1 (PARP1, Homo sapiens, UniProt P09874); enzyme activity, inhibitor; 50 nM): 7%

CN(C)C(=O)n1ccnn1
inhibition (sn-1-specific diacylglycerol lipase ABHD11; serine hydrolase activity, inhibitor, competitive gel-based ABPP; mouse T-cell proteome; 1 µM, 30 min, 37 °C): < 50%

C[Si]1(C[C@H](CN)CC(=O)O)CCCC1
inhibition (L-type calcium channel, rat; binding, radioligand binding; 70 µM, with: [3H]diltiazem): -8%

COc1ccc2c(c1)C(CC(=O)NC(C(=O)NC(CCc1ccccc1)C(=O)NCc1ccc(C)cc1)C(C)O)CC2=O (stereo not shown)
inhibition (PLAT; enzyme activity, inhibitor; 100 µM): 12%

Cc1c(COc2cc(OCc3cccc(C#N)c3)c(CN3CCCC[C@@H]3C(=O)O)cc2Cl)cccc1-c1cccc(OCc2ccc(C(=O)NO)cc2)c1
inhibition (HDAC3; enzyme activity, inhibitor; 1 µM): 50.5%

CCC(=O)N(C)c1ccc(Cl)c(Cl)c1
inhibition (C-X-C chemokine receptor type 2 (CXCR2, Homo sapiens, UniProt P25025); ligand displacement, radioligand; 10 µM): < 10%

CN1CCN(C(=O)n2ccnn2)CC1
inhibition (Acyl-protein thioesterase 1 (Lypla1, Mus musculus, UniProt P97823); 1 µM): < 50%

Cc1cccc(O[C@H]2CCC[C@@H](C(C)CNCc3ccncc3)C2)c1 (relative stereo)
inhibition (Non-receptor tyrosine-protein kinase TYK2 (TYK2, Homo sapiens, UniProt P29597); kinase activity, kinome panel screening; 1 µM): 4%

Cc1c(COc2cc(OCc3cccc(C#N)c3)c(CNC(C)(CO)CO)cc2Cl)cccc1-c1cccc(OCCCCCC(=O)NO)c1
inhibition (HDAC3; enzyme activity, inhibitor; 1 µM): 91.5%

CC(C)Cn1c(SCC(=O)N2CCc3ccccc3C2)nc2cc(Cl)ccc2c1=O
inhibition (DRD4; ligand displacement, radioligand; 10 µM): -60%

C[C@@H](O)[C@H](NC(=O)c1ccc(OCc2ccccc2)cc1)C(=O)N[C@@H](CCc1ccccc1)C(=O)NCc1ccccc1Cl
inhibition (PLAT; enzyme activity, inhibitor; 100 µM): 18%

O=C(n1ccnn1)n1c2ccccc2c2ccccc21
inhibition (sn-1-specific diacylglycerol lipase ABHD11; serine hydrolase activity, inhibitor, competitive gel-based ABPP; mouse T-cell proteome; 1 µM, 30 min, 37 °C): < 50%

Cc1ccc(C)n1-c1ccc(OCC(=O)O)cc1
inhibition (Breakpoint cluster region protein GAP domain; GAP activity; 10 µM, selectivity counter screen): 31.7%

Excerpt of the above:
CC(=O)c1ccc2c3c(cccc13)NC(C)=N2
inhibition (Breakpoint cluster region protein GAP domain; GAP activity; 10 µM, selectivity counter screen): 9.74%

Cc1cc(C(=O)NCCNC(=O)c2cccc(COc3ccccc3C(N)=O)c2)n[nH]1
inhibition (PARP2; enzyme activity, inhibitor; 0.5 µM): 100%

O=C(O)C1Nc2ccc(Cl)cc2C2C=CCC12 (stereo not shown)
inhibition (Breakpoint cluster region protein GAP domain; GAP activity; 10 µM, selectivity counter screen): 54.7%
